Measured values gathered from unrelated publications.
Each numbered part is a random draw from the data of one study; scales do not carry over between parts.
Sequence of UniProt P29376 (whole entry, looked up): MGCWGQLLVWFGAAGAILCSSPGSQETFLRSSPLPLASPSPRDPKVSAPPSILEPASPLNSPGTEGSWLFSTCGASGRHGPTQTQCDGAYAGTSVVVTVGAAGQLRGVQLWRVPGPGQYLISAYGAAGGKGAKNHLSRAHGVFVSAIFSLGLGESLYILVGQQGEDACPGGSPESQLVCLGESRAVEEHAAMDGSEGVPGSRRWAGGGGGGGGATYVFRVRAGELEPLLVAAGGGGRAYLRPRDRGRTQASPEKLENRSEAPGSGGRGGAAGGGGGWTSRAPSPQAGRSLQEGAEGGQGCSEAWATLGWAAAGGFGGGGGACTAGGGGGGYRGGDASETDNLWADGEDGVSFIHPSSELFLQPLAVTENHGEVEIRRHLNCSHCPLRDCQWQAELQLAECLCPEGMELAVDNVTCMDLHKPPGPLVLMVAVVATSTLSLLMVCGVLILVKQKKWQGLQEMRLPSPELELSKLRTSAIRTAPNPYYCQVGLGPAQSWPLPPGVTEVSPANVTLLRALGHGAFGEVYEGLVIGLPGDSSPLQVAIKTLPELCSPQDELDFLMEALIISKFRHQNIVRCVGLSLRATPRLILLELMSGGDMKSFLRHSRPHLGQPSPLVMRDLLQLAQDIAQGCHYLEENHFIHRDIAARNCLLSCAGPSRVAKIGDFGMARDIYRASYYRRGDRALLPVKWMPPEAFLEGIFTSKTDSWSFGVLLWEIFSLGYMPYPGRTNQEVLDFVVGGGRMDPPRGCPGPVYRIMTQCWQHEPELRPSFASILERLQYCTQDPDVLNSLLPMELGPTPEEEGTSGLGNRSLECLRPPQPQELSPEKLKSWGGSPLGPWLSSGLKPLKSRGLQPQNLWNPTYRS

Sample 1 — SMILES: C=CCc1ccc(O)c(-c2cc(CC=C)ccc2O)c1; read-out: chloride current
ANO1 del476-501/M544A: Anoctamin-1 (ANO1, Homo sapiens, UniProt Q5XXA6, del476-501/M544A)
Sequence of UniProt Q5XXA6 (whole entry, unmodified, looked up): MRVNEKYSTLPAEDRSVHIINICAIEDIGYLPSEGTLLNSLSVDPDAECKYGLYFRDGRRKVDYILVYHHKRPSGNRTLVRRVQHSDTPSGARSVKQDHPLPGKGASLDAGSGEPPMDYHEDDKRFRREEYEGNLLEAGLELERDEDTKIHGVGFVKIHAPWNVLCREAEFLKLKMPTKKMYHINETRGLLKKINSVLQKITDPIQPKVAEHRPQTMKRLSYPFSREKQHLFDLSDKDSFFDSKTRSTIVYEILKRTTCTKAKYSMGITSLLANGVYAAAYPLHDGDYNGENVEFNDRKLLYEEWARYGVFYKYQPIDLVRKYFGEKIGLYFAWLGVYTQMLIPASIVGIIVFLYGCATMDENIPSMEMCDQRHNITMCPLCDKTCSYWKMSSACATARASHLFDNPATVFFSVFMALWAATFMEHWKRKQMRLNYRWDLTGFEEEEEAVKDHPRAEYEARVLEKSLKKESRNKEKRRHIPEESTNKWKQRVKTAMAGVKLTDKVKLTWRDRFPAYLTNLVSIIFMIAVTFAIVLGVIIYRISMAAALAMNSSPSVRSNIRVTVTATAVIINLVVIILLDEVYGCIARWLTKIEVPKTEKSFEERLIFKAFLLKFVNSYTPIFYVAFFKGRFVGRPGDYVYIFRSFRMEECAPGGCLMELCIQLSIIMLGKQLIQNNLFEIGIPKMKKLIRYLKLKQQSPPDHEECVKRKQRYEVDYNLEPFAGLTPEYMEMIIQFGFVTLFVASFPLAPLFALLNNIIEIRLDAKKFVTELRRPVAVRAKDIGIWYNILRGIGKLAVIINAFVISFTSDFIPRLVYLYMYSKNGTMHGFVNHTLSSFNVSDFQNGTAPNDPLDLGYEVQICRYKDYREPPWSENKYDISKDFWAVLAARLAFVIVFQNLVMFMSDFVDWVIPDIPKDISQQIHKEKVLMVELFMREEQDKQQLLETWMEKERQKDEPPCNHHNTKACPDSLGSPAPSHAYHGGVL
It gave -0.441 for normalized current (Anoctamin-1 (ANO1, Homo sapiens, UniProt Q5XXA6, del476-501/R541A); inhibitor, inside-out patch clamp; 30 µM, R515A mutant at -80 mV).
The normalized current was -0.0732 (TMEM16A (human) K603A/E623A; inside-out patch clamp; 30 µM, membrane voltage -20 mV).
The normalized current was -0.238 (Anoctamin-1 (ANO1, Homo sapiens, UniProt Q5XXA6, del476-501/E659A/K629A); inside-out patch clamp; 30 µM, membrane voltage -40 mV).
TMEM16A (human) K603A/E623A; inside-out patch clamp; 30 µM, membrane voltage 80 mV — normalized current: 0.512.
ANO1 del476-501/M544A; inhibitor, whole-cell voltage clamp; 100 µM, M518A mutant; relative to: untreated — normalized current: 0.499.
The normalized current was 0.555 (Anoctamin-1 (ANO1, Homo sapiens, UniProt Q5XXA6, del476-501/K629A); inside-out patch clamp; 30 µM, membrane voltage 80 mV).
ANO1 del476-501/M544A; inhibitor, whole-cell voltage clamp; 30 µM, M518A mutant; relative to: untreated — normalized current: 0.779.
The normalized current was -1.01 (Anoctamin-1 (ANO1, Homo sapiens, UniProt Q5XXA6, del476-501/E659A); inhibitor, inside-out patch clamp; 30 µM, E633A mutant at -100 mV).

Sample 2 — read-out: enzyme activity; action: inhibitor; concentration: 10 µM
Target: Calcium/calmodulin-dependent protein kinase type II subunit alpha (CAMK2A, Homo sapiens, UniProt Q9UQM7)
Sequence of UniProt Q9UQM7 (whole entry, looked up): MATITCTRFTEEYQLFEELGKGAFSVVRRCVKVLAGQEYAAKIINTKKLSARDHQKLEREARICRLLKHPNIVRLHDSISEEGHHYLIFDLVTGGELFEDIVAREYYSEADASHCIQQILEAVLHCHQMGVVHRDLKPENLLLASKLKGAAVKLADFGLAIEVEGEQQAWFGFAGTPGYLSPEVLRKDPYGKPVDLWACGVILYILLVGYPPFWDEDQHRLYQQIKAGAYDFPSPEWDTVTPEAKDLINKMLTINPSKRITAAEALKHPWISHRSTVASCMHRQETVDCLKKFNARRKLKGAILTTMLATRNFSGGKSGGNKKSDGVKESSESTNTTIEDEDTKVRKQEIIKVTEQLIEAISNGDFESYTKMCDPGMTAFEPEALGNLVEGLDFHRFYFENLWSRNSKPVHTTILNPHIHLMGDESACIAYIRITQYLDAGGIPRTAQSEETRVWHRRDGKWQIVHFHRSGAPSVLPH
With `C/C(=C\CNc1ncnc2nc[nH]c12)CO` the inhibition was -24%.
`CC(C)Cc1ccc([C@@H](C)C(=O)O)cc1` gave an inhibition of -9%.
`CC1(C)S[C@@H]2[C@H](NC(=O)[C@H](NC(=O)N3CCNC3=O)c3ccccc3)C(=O)N2[C@H]1C(=O)O` has an inhibition of -3%.
With `O=C(O)[C@@H](O)CO` the inhibition was 9%.
`O=NN(CCCl)C(=O)NCCCl` has an inhibition of -9%.
With `OC[C@@]1(O)OC[C@@H](O)[C@@H](O)[C@@H]1O` the inhibition was 24%.
`C[N+](C)(C)[C@@H](Cc1c[nH]c(=S)[nH]1)C(=O)[O-]` gave an inhibition of -17%.
With `COc1ccc([C@@H]2CC(=O)c3c(O)cc(O[C@@H]4O[C@H](CO)[C@@H](O)[C@H](O)[C@H]4O)cc3O2)cc1O` the inhibition was 17%.

Sample 3 — organism: Sarcocystis neurona; read-out: parasite growth; concentration: 10 µM; setting: secondary screen
With `CCc1nn(CCCN2CCN(c3cccc(Cl)c3)CC2)c(=O)n1CCOc1ccccc1` the inhibition was 58.9%.
`CN(C)CCC=C1c2ccccc2COc2ccccc21` has an inhibition of -21.4%.
With `COCCCOc1ccnc(C[S+]([O-])c2nc3ccccc3[nH]2)c1C` (stereo not shown) the inhibition was -53.9%.
For `CCN(CC)CC#CCOC(=O)C(O)(c1ccccc1)C1CCCCC1` (stereo not shown), the inhibition was -24.7%.
With `Nc1ccn([C@@H]2CS[C@H](CO)O2)c(=O)n1` the inhibition was -39.9%.
`C[C@]12CCC(=O)C=C1CC[C@@H]1[C@@H]2CC[C@@]2(C)[C@H]1CC[C@]2(O)C(=O)CO` gave an inhibition of 28.3%.
With `C[N+]1(C)CCC(OC(=O)C(O)(c2ccccc2)C2CCCC2)C1` (stereo not shown) the inhibition was -53.2%.
`N#Cc1ccc(C(c2ccc(C#N)cc2)n2cncn2)cc1` gave an inhibition of -40.1%.

Mixed results
`O=C(NC(NC(=S)Nc1ccc(F)c([N+](=O)[O-])c1)C(Cl)(Cl)Cl)C(c1ccccc1)c1ccccc1` (stereo not shown) has a remaining activity of 91.5% (Leukocyte tyrosine kinase receptor (LTK, Homo sapiens, UniProt P29376); enzyme activity, inhibitor, radiometric; 0.5 µM).
